Measurements gathered from unrelated publications.
Numbered parts are unrelated; each lists some results of a single study. Changes are numbered by the printed parent chain.

Study 1 — target: CCNA1, cyclin fold, Cln2 fusion (human); method: yeast growth competition, sequencing; sample: yeast; setting: strong parent motif; baseline: not given; direction: higher = stronger binding; quantity: normalised enrichment score; parent: viral docking peptide; TSVRRALFTGGSD
TSVRRASFTGGSD [L7S]: -0.172
TIVRRALFTGGSD [S2I]: 0.435
TSVRYALFTGGSD [R5Y]: 0.165
TSVSRALFTGGSD [R4S]: 0.579
TSVRRAMFTGGSD [L7M]: 0.355
TSKRRALFTGGSD [V3K]: 0.178
TSVRRALFTGTSD [G11T]: 1.46
TSVRIALFTGGSD [R5I]: 0.23
TSVRRALFGGGSD [T9G]: 1.09
TSVRRALTTGGSD [F8T]: -0.276
TWVRRALFTGGSD [S2W]: -0.197
TSVRRALFLGGSD [T9L]: 1.37
TSVRRALFTGMSD [G11M]: 1.04
TSVRRVLFTGGSD [A6V]: 0.911
TSFRRALFTGGSD [V3F]: 0.04
TSVRRYLFTGGSD [A6Y]: -0.421
TSVRNALFTGGSD [R5N]: 0.274
TSVRRALFTGYSD [G11Y]: 0.919
TSVRRELFTGGSD [A6E]: 1.59
TSARRALFTGGSD [V3A]: 0.659

Study 2 — method: protein-binding microarray; form: double-stranded DNA, one strand shown; sample: in vitro; tested at: 0.8 µM; setting: whole 60-bp probe, no competitor; direction: higher = stronger binding; quantity: fluorescence intensity
Target: Centromere-binding protein 1, full length, N-terminal tag (CBF1, Saccharomyces cerevisiae, UniProt P17106, residues 1-351)
Sequence of UniProt P17106 (whole entry, looked up): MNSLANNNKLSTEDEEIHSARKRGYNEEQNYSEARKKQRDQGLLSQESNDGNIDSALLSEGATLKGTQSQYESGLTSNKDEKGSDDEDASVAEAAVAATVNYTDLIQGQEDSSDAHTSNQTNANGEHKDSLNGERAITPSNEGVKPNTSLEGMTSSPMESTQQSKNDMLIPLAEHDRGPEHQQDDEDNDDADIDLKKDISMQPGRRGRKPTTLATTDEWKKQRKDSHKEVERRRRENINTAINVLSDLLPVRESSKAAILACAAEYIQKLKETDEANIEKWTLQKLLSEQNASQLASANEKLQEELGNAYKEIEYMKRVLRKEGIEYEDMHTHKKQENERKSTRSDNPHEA
CTATCATTTCTTCGTGACGTTGGTGACAGGAATTTCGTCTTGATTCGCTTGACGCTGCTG: 652 a.u.
CTATGTAATTTTTGGCATGTGCTATTGTATGAATTCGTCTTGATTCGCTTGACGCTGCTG: 1020 a.u.
GAAATTCTTCCAAATCTGATCACGTTAGGAAATTAGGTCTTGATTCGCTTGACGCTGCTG: 2310 a.u.
CTACAGAATTGCTGTCGCATCACCAAAAAAAAATTCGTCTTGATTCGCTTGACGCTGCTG: 527 a.u.
TGTACGAAGCTATAAGACGTGTATATAGTAGTTAGGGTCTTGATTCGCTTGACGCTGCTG: 536 a.u.
GAAAACACCCGAAGTTGCGTGTCCCCCTCACGTTAGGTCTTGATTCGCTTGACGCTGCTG: 509 a.u.
GAACGATTTTTGTCACCTGCAAACTCTTCTTGTTAGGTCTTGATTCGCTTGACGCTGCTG: 924 a.u.
CTACTGTGGCCCCCTCACGCTGTTTAATGACGATTCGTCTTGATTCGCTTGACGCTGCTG: 548 a.u.

Study 3 — method: universal PBM; form: double-stranded DNA, one strand shown; sample: in vitro; tested at: not given; direction: higher = stronger binding; quantity: E-score
Target: Sal-like protein 4, full length isoform B (SALL4, Homo sapiens, UniProt Q9UJQ4-2, residues 1-616)
Setting: 8-mer, flanks averaged, mean of replicates
TGTAAAAA: 0.309
GGATCTTA: 0.0104
CCGGTCGA: -0.395
CCACGAAA: -0.132
ATTTCTGG: 0.174
GCGACAGA: -0.214
CATCGGCG: -0.275
CAGAGAAC: -0.0575

Study 4 — method: aptamer microarray, sandwich; form: DNA with 2'F-ANA; sample: in vitro; tested at: 200 nM; together with: Cy3 exosite-II aptamer, 400 nM; direction: higher = stronger binding; quantity: mean fluorescence intensity; sequence: GGTTGGTGTGGTTGG
Target: Prothrombin, mature alpha-thrombin (F2, Homo sapiens, UniProt P00734)
Setting: whole 15-mer aptamer, many near background
2'F-ANA at 1 2 7 10 11 13 14 15: 52.8 a.u.
2'F-ANA at 1 2 3 6 8 9 10 13: 62.3 a.u.
2'F-ANA at 1 2 5 7 8 9 10 14 15: 45.5 a.u.
2'F-ANA at 2 6 7 11 12 13 15: 442 a.u.
2'F-ANA at 2 3 4 5 6 7 8 9 11 13 14: 51.6 a.u.
2'F-ANA at 2 8 9 10 13 15: 105 a.u.
2'F-ANA at 2 7 11 12 14: 259 a.u.
2'F-ANA at 2 6 11 14 15: 149 a.u.

Other studies, line by line
YMRERLSDF
binding (HLA class I histocompatibility antigen, C alpha chain, allele C*04:01 (Homo sapiens, UniProt P10321); peptide-MHC binding; peptide; concentration not given): inactive

For quick reference, copied from above (study 2):
GAAAACACCCGAAGTTGCGTGTCCCCCTCACGTTAGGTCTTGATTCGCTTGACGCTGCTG: 509 a.u.
GAACGATTTTTGTCACCTGCAAACTCTTCTTGTTAGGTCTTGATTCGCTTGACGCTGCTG: 924 a.u.
CTACTGTGGCCCCCTCACGCTGTTTAATGACGATTCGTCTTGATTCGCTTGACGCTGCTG: 548 a.u.
